{"data": "Experimental data collected from several papers", "B1": "ClpX 1-426 (Pseudomonas aeruginosa, UniProt Q9I2U0); chain MTDTRNGEDNGKLLYCSFCGKSQHEVRKLIAGPSVFICDECVDLCNDIIREEVQEAQAESSGHKLPAPKEIRTILDQYVIGQERAKKVLAVAVYNHYKRLNQRDKKDDIELGKSNILMIGPTGSGKTLLAETLARLLNVPFTIADATTLTEAGYVGEDVENIIQKLLQKCDYDVEKAQMGIVYIDEIDKISRKSDNPSITRDVSGEGVQQALLKLIEGTVASVPPQGGRKHPQQEFLQVDTRNILFICGGAFAGLERVIQNRSARGGIGFNAEVRSQEMGKKVGEAFKEVEPEDLVKFGLIPEFVGRLPVIATLDELDEAALMQILTEPKNALTKQYAKLFEMEGVDLEFRPDALKAVARKALERKTGARGLRSILEGILLDTMYEIPSQQDVSKVVIDESVIDGSSQPLMIYENSEKPAKAAPEA", "B2": "arp4 42-355 (Streptococcus pyogenes, UniProt P13050); chain AEIKKPQADSAWNWPKEYNALLKENEELKVEREKYLSYADDKEKDPQYRALMGENQDLRKREGQYQDKIEELEKERKEKQERQEQLERQYQIEADKHYQEQQKKHQQEQQQLEAEKQKLAKDKQISDASRQGLSRDLEASRAAKKELEAEHQKLKEEKQISDASRQGLSRDLEASREAKKKVEADLAALTAEHQKLKEDKQISDASRQGLSRDLEASREAKKKVEADLAEANSKLQALEKLNKELEEGKKLSEKEKAELQARLEAEAKALKEQLAKQAEELAKLKGNQTPNAKVAPQANRSRSAMTQQKRTLPS", "B3": "pyrE E19A/R53A/R56A (Burkholderia cenocepacia, UniProt B4E589); chain MTGYDRQSISDTTAKILLAVQAVHFNAEKPFIFTSGWASPVYIDCRKLISYPAVRAALMEMAETTITRDIGFEQIDAVAGGETAGIPFAAWIADRMMVPMQYVRKKPKGFGRNAQIEGHLEEGSRVLLVEDLTTDSRSKINFVNALRTAGATVNHCFVLFHYNIFKESVSVLKDIDVDLHALATWWDVLRVAKASGYFETKTLDEVEKFLHAPAEWSAAHGGATAPKE", "B4": "SthK; chain MAKDIGINSDPNSSSVDKLMKSSGVSNPTYTLVWKVWILAVTLYYAIRIPLTLVFPSLFSPLLPLDILASLALIADIPLDLAFESRRTSGRKPTLLAPSRLPDLLAALPLDLLVFALHLPSPLSLLSLVRLLKLISVQRSATRILSYRINPALLRLLSLVGFILLAAHGIACGWMSLQPPSENPAGTRYLSAFYWTITTLTTIGYGDITPSTPTQTVYTIVIELLGAAMYGLVIGNIASLVSKLDAAKLLHRERVERVTAFLSYKRISPELQRRIIEYFDYLWETRRGYEEREVLKELPHPLRLAVAMEIHGDVIEKVPLFKGAGEEFIRDIILHLEPVIYGPGEYIIRAGEMGSDVYFINRGSVEVLSADEKTRYAILSEGQFFGEMALILRAPRTATVRARAFCDLYRLDKETFDRILSRYPEIAAQIQELAVRRKELESSGLVPRGSVKHHHH", "B5": "panD E97A (Mycobacterium abscessus, UniProt B1MGV7); chain MMFRTMMKSKIHRATVTHADLHYVGSVTIDPDLMEAADLLEGEQVTIVDIDNGARLETYAITGTRGSGVIGINGAAAHLVHPGDLVIIIAYGVMTDEAARAFTPRVVFVDSDNKQVELGEHSDDPAYVPENFGLVSPRGLV", "B6": "PALB2 1-195 I195W (Homo sapiens, UniProt Q86YC2); chain MDEPPGKPLSCEEKEKLKEKLAFLKREYSKTLARLQRAQRAEKIKHSIKKTVEEQDCLSQQDLSPQLKHSEPKNKICVYDKLHIKTHLDEETGEKTSITLDVGPESFNPGDGPGGLPIQRTDDTQEHFPHRVSDPSGEQKQKLPSRRKKQQKRTFISQERDCVFGTDSLRLSGKRLKEQEEISSKNPARSPVTEW", "B7": "Rep68 C151S (adeno-associated virus 2, UniProt P03132); chain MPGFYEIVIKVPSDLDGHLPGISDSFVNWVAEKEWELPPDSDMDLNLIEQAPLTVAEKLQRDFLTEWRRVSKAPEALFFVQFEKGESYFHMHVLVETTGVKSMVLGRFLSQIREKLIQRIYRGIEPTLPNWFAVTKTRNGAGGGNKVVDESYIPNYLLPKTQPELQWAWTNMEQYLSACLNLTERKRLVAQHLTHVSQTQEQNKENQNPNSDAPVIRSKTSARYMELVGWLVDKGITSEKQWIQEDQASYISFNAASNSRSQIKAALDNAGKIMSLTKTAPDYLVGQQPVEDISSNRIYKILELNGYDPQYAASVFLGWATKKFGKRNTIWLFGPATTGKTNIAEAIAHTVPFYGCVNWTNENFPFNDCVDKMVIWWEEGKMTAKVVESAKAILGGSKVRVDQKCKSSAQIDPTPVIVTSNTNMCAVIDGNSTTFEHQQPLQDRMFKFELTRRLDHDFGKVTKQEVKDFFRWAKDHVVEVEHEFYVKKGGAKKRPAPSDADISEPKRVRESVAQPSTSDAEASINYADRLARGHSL", "B8": "tad1 Q98A/E99A/M102A/W103A/K106A (Metaclostridioides mangenotii, UniProt P0DW61); chain MEIKNGLCTQKYTKVYAEDKEKWKFNAPHHFIVGKADCEDEYIEPIEYVNFQEGPIKEYGINGVNNEDLILMVITRLQAFQDSPYKCRENAMAITKLAACLAALGARTLDREVKGIEGTSEI", "B9": "aer2 A184C/R224C (Pseudomonas aeruginosa, UniProt Q9I6V6); chain MGLFNAHAVAQQRADRIATLLQSFADGQLDTAVGEAPAPGYERLYDSLRALQRQLREQRAELQQVESLEAGLAEMSRQHEAGWIDQTIPAERLEGRAARIAKGVNELVAAHIAVKMKVVSVVTAYGQGNFEPLMDRLPGKKAQITEAIDGVRERLRGAAEATSAQLATAAYNARIKSALDNVSCNVMIADNDLNIIYMNRTVSEMLGRAEADIRKQLPNFDAGCLMGANIDVFHKNPAHQRHLLANLTGVHKAELNLGGRRFSLDVVPVFNDANERLGSAVQWTDRTEEHRAEQEVSQLVQAAAAGDFSKRVEEAGKEGFFLRLAKDLNSLVDTADRGLRDVSRMLGALAQGDLTQRIEADYQGTFGQLKDFSNDTAQSLSRMLGQIREAADTINTAASEIASGNAELSARTEQQASSLEETASSMEELTSTVKLNAENARQANSLAANASEVATQGGTVVQKVVSTMSSINESARKIADIIGVIDGIAFQTNILALNAAVEAARAGEQGRGFAVVAGEVRTLAQRSAAAAKEIKTLISDSVDKVENGNTLVAQAGQTMSDIVVAIRRVTDIMSEIAAASAEQSTGIEEVNSAVSQMDDMTQQNAALVEEAAAAAEAMQEQAGLLNQSVAVFRLDTPPSVVQLASARPSAPRPSAPAPLARSGMARASKARKEDGWEEF", "B10": "dnaN beta clamp 1-367 (Neisseria gonorrhoeae, UniProt A0ACH0F8P7); chain MLILQAERDSLLKPLQAVTGIVERRHTLPILSNVLIEGRGGQTKLLATDLEIQIDTAGPEGGAGDFRITTNAKKFQDILRALPAGALVSLDWDDNRLTLKAGKSRFALQTLPAADFPMMNVGEDISATFSLGQERFKTMLSQVQYSMAVQDIRYYLNGLLMQVEGSQLRLVATDGHRLAYAACAIDADLPRAEVILPRKTVLELFKLLNNPDDPIQIELLDKQVRFQCNGTTIVSKVIDGKFPDFNRVIPLDNDKIFVLSRAELLGALERVSILANEKFRGARLFLQPGLLSVVCSNNEQEEAREEIEIAYQGGELEVGFNIGYLMDVLRNIHSDDMQLAFGDANRSTLFTVPNNPNFKYIVMPMRI", "B11": "sduA (Bacillus cereus, UniProt B7HFR2); chain MSDKINVWTTSRDSAVCGDIELKKTSTTRLIFRPEIVNNNKNPKASVRGCFIFQKKGRNALWDDYKELDMNKLKAEEWIKLEINSDAMLTLTKEIQKHYAVHEKYGVRYGAFHLFKDNPDIEKLIEMFESNTDLLTQLMEDDKSEALEKTLEWIVTNDNPDKIIDRLKNLKEQDLDQLNTLIGIANLKKVLSVWESNKLTNTSEKFWQSVLKENTWILSQIFSNPTVLINDEAYVGGKTVKNDSGKLVDFLYANPFSKDAVLIEIKTPSTPLITPTEYRTGVYSAHKDLTGAVTQVLTYKTTLQREYQNIDYNNYRQGIKTDFDIITPCCVVIAGMFDTLTDTAHRHSFELYRKELKNVTVITFDELFERVKGLIKLLEG", "note": "Protocols differ between the studies behind these lines. Several values in a cell are separate wells, animals, samples, runs or records."}
{"Molecule": "B1 (ClpX 1-426)", "tested on": "itself", "assay": "cryo-EM", "quantity": "subunits per oligomer", "result": 6}
{"Molecule": "B2 (arp4 42-355)", "tested on": "itself", "assay": "cryo-EM", "quantity": "subunits per oligomer", "result": 2}
{"Molecule": "B3 (pyrE E19A/R53A/R56A)", "tested on": "itself", "assay": "SEC", "quantity": "subunits per oligomer", "result": 2}
{"Molecule": "B4 (SthK)", "tested on": "itself", "assay": "native MS", "quantity": "subunits per oligomer", "result": 4}
{"Molecule": "B5 (panD E97A)", "tested on": "itself", "assay": "native gel", "quantity": "subunits per oligomer", "result": 4}
{"Molecule": "B6 (PALB2 1-195 I195W)", "tested on": "itself", "assay": "AUC", "quantity": "subunits per oligomer", "result": 4}
{"Molecule": "insulin human", "assay": "measured: SYN2 mRNA", "system": "uninfected mouse, brain", "setting": "i.p., dose not given", "scale": "relative to: PBS", "quantity": "fold change", "result": 1.18}
{"Molecule": "B7 (Rep68 C151S)", "tested on": "itself", "assay": "cryo-EM", "quantity": "subunits per oligomer", "result": "5 and 6"}
{"Molecule": "gpJ (bacteriophage lambda, UniProt P03749)", "tested on": "itself", "assay": "cryo-EM", "quantity": "subunits per oligomer", "result": 3}
{"Molecule": "B8", "tested on": "itself", "assay": "SEC-MALS", "quantity": "subunits per oligomer", "result": 2}
{"Molecule": "B9 (aer2 A184C/R224C)", "tested on": "itself", "assay": "cross-linking", "quantity": "subunits per oligomer", "result": "4 and 2 and 6"}
{"Molecule": "B10 (dnaN beta clamp 1-367)", "tested on": "itself", "assay": "SEC-MALS", "quantity": "subunits per oligomer", "result": 2}
{"Molecule": "B11 (sduA)", "tested on": "itself", "assay": "SEC-MALS", "quantity": "subunits per oligomer", "result": 4}
